Assay results from different studies.
Compare with care: the assays were run in different laboratories. ± marks the error that the study gave.
APP amyloid-beta peptide: Amyloid-beta precursor protein, amyloid-beta peptide (APP, Homo sapiens, UniProt P05067)
Grm2: Metabotropic glutamate receptor 2 (Grm2, Rattus norvegicus, UniProt P31421)
FGFR1: Fibroblast growth factor receptor 1 (FGFR1, Homo sapiens, UniProt P11362)
IDO1: Indoleamine 2,3-dioxygenase 1 (IDO1, Homo sapiens, UniProt P14902)
Tubulin alpha/beta heterodimer: Tubulin alpha/beta heterodimer (Leishmania infantum, UniProt A0A381MCS3+A4HTR0)
ESR1: Estrogen receptor (ESR1, Homo sapiens, UniProt P03372)

The chains behind the UniProt entries cited, without tags or fusion partners. Residues count along the entry.
UniProt P05067, whole entry, looked up: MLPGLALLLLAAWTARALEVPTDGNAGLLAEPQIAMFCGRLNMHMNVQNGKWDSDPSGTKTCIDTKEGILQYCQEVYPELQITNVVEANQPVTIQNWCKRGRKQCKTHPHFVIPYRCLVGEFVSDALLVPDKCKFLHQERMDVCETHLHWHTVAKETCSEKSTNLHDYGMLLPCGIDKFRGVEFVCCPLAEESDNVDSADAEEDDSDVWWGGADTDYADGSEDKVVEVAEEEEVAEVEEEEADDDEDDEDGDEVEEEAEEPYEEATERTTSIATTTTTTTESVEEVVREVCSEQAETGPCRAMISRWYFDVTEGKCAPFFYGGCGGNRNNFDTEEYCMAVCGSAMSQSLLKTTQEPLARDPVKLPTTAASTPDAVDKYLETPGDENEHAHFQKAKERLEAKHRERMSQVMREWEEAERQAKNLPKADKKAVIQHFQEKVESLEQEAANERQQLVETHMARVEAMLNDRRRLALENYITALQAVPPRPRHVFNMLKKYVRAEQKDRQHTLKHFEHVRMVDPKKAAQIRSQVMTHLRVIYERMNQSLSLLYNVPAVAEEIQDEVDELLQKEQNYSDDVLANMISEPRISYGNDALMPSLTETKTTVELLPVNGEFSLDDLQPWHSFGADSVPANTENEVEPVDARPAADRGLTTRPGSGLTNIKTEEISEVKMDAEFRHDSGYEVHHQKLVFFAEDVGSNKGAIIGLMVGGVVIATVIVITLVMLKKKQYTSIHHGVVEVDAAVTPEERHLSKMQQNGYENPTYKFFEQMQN
UniProt P11362, 22-822 limits assumed: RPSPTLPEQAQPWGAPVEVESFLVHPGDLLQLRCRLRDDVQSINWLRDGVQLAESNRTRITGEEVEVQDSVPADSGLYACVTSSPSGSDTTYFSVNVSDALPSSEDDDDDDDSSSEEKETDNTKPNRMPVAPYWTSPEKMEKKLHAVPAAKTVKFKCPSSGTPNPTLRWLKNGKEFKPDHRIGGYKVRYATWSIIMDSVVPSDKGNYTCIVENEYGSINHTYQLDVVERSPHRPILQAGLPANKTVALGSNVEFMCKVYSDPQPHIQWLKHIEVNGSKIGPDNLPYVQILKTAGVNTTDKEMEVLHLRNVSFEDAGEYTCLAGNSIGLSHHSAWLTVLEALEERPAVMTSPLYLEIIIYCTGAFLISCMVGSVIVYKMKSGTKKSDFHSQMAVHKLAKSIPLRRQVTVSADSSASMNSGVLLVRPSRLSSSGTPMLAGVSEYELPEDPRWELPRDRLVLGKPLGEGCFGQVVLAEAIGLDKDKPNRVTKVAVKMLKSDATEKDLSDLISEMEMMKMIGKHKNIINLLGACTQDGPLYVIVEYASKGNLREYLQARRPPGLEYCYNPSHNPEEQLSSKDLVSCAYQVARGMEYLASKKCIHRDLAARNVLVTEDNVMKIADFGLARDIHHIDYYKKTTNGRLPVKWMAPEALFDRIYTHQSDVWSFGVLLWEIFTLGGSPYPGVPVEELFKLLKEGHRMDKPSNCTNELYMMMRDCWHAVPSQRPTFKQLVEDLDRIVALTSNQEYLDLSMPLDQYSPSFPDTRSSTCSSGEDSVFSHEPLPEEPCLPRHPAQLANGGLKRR
UniProt P11362, 478-767 limits assumed: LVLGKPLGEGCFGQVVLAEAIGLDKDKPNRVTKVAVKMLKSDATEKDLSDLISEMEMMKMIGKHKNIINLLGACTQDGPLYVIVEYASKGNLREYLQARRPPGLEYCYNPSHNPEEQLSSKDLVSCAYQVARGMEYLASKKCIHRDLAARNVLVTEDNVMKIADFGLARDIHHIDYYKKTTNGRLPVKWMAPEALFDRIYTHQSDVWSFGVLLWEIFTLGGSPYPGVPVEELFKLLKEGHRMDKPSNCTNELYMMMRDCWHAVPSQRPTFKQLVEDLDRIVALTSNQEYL
UniProt A0A381MCS3, 1-451: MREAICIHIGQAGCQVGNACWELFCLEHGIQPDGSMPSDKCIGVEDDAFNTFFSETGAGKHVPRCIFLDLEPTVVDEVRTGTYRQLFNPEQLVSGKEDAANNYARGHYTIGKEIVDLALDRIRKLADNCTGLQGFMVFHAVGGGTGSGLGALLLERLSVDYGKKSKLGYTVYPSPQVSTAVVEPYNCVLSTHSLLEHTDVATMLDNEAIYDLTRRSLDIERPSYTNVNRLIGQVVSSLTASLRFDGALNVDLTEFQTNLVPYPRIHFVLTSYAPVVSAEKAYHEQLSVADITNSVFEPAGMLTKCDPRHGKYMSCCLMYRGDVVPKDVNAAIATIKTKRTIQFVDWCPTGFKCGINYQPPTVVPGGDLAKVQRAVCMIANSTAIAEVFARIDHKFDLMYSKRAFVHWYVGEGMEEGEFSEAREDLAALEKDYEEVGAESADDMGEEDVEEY
UniProt A4HTR0, 1-443: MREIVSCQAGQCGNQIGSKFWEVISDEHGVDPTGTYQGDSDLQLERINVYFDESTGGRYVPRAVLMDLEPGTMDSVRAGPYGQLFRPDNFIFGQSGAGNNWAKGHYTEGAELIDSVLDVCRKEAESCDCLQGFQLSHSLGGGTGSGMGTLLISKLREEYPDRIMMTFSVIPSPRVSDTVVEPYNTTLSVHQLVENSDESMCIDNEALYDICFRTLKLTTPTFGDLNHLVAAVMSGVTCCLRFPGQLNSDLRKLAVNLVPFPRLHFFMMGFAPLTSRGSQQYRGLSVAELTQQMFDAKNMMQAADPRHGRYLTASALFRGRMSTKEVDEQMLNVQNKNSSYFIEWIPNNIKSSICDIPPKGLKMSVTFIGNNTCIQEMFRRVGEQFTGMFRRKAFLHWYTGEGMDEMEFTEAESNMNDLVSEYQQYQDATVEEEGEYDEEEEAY
UniProt P03372, whole entry: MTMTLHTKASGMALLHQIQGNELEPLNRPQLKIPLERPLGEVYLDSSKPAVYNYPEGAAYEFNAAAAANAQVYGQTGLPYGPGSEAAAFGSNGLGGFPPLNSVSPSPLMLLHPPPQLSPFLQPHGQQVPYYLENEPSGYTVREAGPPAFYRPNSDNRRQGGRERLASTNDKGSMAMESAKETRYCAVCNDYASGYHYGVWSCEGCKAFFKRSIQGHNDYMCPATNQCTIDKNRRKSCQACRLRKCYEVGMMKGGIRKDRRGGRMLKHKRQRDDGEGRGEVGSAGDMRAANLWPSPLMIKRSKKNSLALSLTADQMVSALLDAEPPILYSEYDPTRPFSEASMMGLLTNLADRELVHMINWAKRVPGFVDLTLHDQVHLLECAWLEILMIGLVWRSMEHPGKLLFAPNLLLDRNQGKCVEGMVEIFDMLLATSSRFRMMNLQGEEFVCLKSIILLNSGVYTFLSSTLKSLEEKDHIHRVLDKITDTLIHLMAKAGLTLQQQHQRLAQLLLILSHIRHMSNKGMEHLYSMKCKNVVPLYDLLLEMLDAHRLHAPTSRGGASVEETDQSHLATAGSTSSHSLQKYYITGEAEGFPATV
UniProt P26038, whole entry, looked up: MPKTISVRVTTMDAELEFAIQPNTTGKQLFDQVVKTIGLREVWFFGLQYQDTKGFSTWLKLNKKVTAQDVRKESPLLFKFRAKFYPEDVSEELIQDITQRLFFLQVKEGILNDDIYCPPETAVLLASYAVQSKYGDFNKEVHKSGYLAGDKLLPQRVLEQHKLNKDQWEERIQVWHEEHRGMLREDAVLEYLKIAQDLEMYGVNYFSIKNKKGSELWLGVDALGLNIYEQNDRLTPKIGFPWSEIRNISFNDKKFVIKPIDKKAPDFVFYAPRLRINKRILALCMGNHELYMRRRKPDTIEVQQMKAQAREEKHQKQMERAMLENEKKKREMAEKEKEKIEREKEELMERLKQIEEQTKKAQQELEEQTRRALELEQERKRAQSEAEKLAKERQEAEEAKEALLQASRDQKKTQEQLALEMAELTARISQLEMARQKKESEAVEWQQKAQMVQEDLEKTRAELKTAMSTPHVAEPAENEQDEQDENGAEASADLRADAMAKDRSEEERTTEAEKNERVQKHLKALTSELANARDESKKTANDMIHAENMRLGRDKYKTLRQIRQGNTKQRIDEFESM
UniProt Q92630, whole entry: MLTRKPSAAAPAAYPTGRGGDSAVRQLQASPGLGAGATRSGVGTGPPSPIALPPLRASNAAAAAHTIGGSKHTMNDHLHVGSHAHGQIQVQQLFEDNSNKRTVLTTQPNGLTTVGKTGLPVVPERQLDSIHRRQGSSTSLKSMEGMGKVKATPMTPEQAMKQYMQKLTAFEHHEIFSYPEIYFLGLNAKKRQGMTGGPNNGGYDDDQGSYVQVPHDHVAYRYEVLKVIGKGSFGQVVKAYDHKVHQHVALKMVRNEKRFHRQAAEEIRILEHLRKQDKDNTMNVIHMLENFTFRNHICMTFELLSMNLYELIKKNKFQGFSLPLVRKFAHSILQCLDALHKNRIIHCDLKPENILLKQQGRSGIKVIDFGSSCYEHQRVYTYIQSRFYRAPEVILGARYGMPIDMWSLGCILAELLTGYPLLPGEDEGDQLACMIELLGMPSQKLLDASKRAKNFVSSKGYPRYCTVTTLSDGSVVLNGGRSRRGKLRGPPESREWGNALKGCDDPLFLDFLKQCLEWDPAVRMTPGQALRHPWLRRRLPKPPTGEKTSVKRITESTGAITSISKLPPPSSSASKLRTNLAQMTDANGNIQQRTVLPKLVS
UniProt Q6P5Z2, whole entry: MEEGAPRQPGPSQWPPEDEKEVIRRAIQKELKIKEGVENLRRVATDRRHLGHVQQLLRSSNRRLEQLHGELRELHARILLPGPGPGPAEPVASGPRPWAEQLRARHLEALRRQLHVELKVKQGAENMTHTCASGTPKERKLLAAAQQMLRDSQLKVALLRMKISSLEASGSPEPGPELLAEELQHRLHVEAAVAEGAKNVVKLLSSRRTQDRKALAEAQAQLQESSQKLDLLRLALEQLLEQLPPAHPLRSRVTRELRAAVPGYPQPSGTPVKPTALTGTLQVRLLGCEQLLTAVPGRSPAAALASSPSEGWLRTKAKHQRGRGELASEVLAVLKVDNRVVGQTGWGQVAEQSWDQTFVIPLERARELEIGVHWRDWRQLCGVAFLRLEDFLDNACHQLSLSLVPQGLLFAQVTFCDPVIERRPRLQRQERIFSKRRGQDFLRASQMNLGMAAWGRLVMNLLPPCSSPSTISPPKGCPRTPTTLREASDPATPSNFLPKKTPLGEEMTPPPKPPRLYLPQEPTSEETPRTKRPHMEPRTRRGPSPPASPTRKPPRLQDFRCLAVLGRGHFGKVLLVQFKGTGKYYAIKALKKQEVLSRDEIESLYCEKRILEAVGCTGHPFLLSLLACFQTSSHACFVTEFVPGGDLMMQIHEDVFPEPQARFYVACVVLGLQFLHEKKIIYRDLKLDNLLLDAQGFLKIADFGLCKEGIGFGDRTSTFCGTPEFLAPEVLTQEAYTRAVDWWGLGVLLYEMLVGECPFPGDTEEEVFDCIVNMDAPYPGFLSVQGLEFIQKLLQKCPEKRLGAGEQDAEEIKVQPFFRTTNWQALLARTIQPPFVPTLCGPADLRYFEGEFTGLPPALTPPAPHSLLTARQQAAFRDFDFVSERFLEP
UniProt Q9Y253, 1-437 limits assumed: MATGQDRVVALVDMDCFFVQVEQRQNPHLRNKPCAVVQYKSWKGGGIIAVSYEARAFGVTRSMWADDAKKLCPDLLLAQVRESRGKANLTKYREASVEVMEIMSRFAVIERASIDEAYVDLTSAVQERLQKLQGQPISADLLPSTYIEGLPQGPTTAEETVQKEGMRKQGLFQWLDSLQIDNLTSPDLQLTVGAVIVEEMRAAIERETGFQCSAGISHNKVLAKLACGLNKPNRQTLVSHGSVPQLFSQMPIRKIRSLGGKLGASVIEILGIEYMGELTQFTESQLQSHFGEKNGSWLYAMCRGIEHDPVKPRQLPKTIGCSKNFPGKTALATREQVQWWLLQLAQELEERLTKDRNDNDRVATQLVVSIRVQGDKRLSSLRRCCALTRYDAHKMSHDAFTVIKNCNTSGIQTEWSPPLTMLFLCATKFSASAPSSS
UniProt P49840, whole entry: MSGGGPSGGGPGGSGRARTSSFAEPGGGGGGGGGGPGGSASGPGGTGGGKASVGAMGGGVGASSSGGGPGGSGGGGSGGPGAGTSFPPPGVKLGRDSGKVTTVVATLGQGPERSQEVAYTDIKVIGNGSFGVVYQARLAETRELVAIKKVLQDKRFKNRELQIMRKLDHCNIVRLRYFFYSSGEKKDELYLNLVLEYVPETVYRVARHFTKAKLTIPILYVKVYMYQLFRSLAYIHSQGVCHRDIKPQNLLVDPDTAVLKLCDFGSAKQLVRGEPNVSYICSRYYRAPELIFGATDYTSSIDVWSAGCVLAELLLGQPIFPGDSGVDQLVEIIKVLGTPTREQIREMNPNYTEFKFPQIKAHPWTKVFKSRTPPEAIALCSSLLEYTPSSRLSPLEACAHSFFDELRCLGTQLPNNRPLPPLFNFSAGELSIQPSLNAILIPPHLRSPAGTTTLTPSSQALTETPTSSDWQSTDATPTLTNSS
UniProt P28065, whole entry, looked up: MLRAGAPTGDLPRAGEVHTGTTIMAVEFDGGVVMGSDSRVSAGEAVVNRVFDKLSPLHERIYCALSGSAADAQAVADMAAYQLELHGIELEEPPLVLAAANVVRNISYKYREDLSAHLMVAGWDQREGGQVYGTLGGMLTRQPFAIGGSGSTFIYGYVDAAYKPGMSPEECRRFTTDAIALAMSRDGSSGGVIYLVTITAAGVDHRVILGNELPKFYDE

CN1CC[C@H](c2c(O)cc(O)c3c(=O)cc(-c4cnccc4Cl)oc23)[C@H](O)C1 — IC50 (Cyclin-dependent kinase 9, with cyclin T1 (CDK9, Homo sapiens, UniProt P50750); inhibitor; with cyclin T1, GST-CTD substrate): 0.0135 µM
CCOc1ccc(S(=O)(=O)NC(=O)Cc2ccc(Cl)cc2)cc1Br — IC50 (CGAS (Homo sapiens, UniProt Q8N884); enzyme activity, inhibitor, Kinase-Glo ATP depletion; 25 °C, 100 nM enzyme): 3.29 µM
Cc1cc(NC(=O)c2cccc(NC(=O)C3=CC(C)(C)CC3=O)c2)ccc1Nc1nccc(-c2cccnc2)n1 — IC50 (MAPK8 (Homo sapiens, UniProt P45983); enzyme activity; added: glutathione 10 mM): 0.254 ± 0.055 µM
O=C(Nc1ccc(-c2nc3ccccc3[nH]2)cc1)c1ccco1 — IC50 (Moesin, with CD44 (Homo sapiens, UniProt P26038); MSN-CD44 interaction, inhibitor, TR-FRET; added: CD44): 33.8 µM
Fc1ccc2[nH]cc(/C=C/c3cccnc3)c2c1 — IC50 (APP amyloid-beta peptide; Aβ42 oligomerisation, ELISA): > 20 µM
CCN(Cc1cccnc1)c1ccc2c(c1)c(=O)c(C(N)=O)cn2-c1ccc(F)cc1 — IC50 (Grm2; calcium mobilization, negative allosteric modulator): 0.159 µM
COc1ccc2nc3ccc(OC)cc3c(SCCCN(C)C)c2c1 — IC50 (DYRK2 (Homo sapiens, UniProt Q92630); inhibitor; added: Woodtide peptide): 0.23 µM
CCN(CC)C(=O)Oc1ccccc1C=C1Cc2cc(OC)c(OC)cc2C1=O — IC50 (Cocaine esterase (CES2, Homo sapiens, UniProt O00748); inhibitor; 33 min preincubation, added: fluorescein diacetate): 0.0032 ± 0.00038 µM
CC(C)C[C@H](NC(=O)c1cc(C(=O)O)cc([C@H]2CCN[C@@H]2C(=O)O)c1)C(=O)O — IC50 (AMPA receptor (rat); binding, radioligand binding; rat cortical synaptosomes; added: [3H]AMPA): 33 µM
N#Cc1ccc2[nH]cc(/C=C/c3cccnc3)c2c1 — IC50 (APP amyloid-beta peptide; Aβ42 oligomerisation, ELISA): > 20 µM
CC(=O)N(CC#Cc1cccc(C(N)=O)c1)C[C@H]1C[C@@H](n2ccc3c(Cl)ncnc32)[C@H](O)[C@@H]1O — IC50 (EHMT2 (Homo sapiens, UniProt Q96KQ7); enzyme activity, inhibitor, SAHH-coupled fluorescence): > 100 µM
CCOC(=O)[C@H](CO)NCc1cc2c(cc1OCc1cccc(C#N)c1)C(=O)N(c1cccc(-c3ccccc3)c1C)C2=O — IC50 (Programmed cell death 1 ligand 1, with PD-1 (CD274, Homo sapiens, UniProt Q9NZQ7); PD-1/PD-L1 binding, inhibitor, TR-FRET): 0.867 µM
Cc1ccc(C(=O)Nc2ccc(-c3nc4ccccc4[nH]3)cc2)cc1 — IC50 (Tyrosine-protein kinase SYK, with FCER1G (SYK, Homo sapiens, UniProt P43405); protein binding, inhibitor, TR-FRET): > 100 µM
O=C(Nc1ccccc1)C12CC1/C(=N\O)c1cc(F)ccc1O2 (stereo not shown) — IC50 (Grm1 (Rattus norvegicus, UniProt P23385); antagonist, calcium mobilization; BHK; added: glutamate EC80): > 5 µM
COc1cc(N)c2ncccc2c1Cl — IC50 (METAP1 (Homo sapiens, UniProt P53582); enzyme activity, inhibitor): > 40 µM
O=C(O)CC[C@H](NC(=O)c1cc(C(=O)O)cc([C@H]2CCN[C@@H]2C(=O)O)c1)C(=O)O — IC50 (kainate receptor (rat); binding, radioligand binding; rat cortical synaptosomes; added: [3H]kainate): > 100 µM
CCOC(=O)c1cccc(C(NS(=O)(=O)c2cccs2)C(=O)Nc2ccc(Cl)cc2)c1 (stereo not shown) — IC50 (Uracil nucleotide/cysteinyl leukotriene receptor, long isoform (GPR17, Homo sapiens, UniProt Q13304); calcium mobilization, antagonist; 1321-N1): 15.7 ± 1.32 µM
S=c1[nH]c(-c2ccccc2)cs1 — IC50 (CA2 (Homo sapiens, UniProt P00918); inhibitor): 4.56 ± 0.62 µM
Cc1ncc(COc2ccc3c(c2)c(=O)c(C(N)=O)cn3-c2ccc(F)cc2)cn1 — IC50 (Grm2; calcium mobilization, negative allosteric modulator): 0.723 µM
NC(=O)c1ccc(-c2cc3c(nn2)-c2ccccc2C3=O)cc1 — IC50 (ALK (Homo sapiens, UniProt Q9UM73); ELISA): 35 µM
O=C(c1ccccc1)N(O)CCCP(=O)(O)O — IC50 (1-deoxy-D-xylulose 5-phosphate reductoisomerase, apicoplastic (DXR, Plasmodium falciparum, UniProt O96693)): 0.232 µM
Cc1ccc2oc(-c3c4c(N)n[nH]c(=O)c4nn3-c3ccc(Br)cc3)c(C)c2c1 — IC50 (FGFR1; kinase activity, inhibitor, ELISA): 0.0446 ± 0.0009 µM
CCOc1ccc(-c2cc(C(F)(F)F)c(C#N)c(SCC(=O)Nc3ccccc3F)n2)cc1 — IC50 (TAAR1 (Homo sapiens, UniProt Q96RJ0)): > 10 µM
Clc1ccc(C2(c3ccc(-c4ccnc5ccccc45)cc3)CCNCC2)cc1 — IC50 (AKT1 (Homo sapiens, UniProt P31749); kinase activity, inhibitor, radiometric HotSpot; added: ATP 10 µM): 0.59 µM
Oc1cccc(/C=C/c2c[nH]c3ccc(F)cc23)c1 — IC50 (IDO1; enzyme activity, inhibitor): 10 µM
COc1cc(Nc2ncnc(-c3cccnc3Nc3cc(NC(=O)c4cccc(C(F)(F)F)c4)ccc3C)n2)cc(OC)c1OC — IC50 (ABL1 (Homo sapiens, UniProt P00519, E255V); enzyme activity; kinase domain): 0.04 ± 0.005 µM
C[C@H](NC(=O)c1cc(C(=O)O)cc([C@H]2CCN[C@@H]2C(=O)O)c1)C(=O)O — IC50 (kainate receptor (rat); binding, radioligand binding; rat cortical synaptosomes; added: [3H]kainate): 54 µM
O=C(Cn1c(-c2cscn2)nc2ccccc21)Nc1ccc2ccccc2c1 — IC50 (IMPDH2 (Homo sapiens, UniProt P12268); enzyme activity, inhibitor; lower bound): ≥ 40 µM
Nc1nc2c(ncn2COCCNC(=O)c2cc3cc(Br)ccc3c(Br)c2O)c(=O)[nH]1 — IC50 (SAMHD1 (Homo sapiens, UniProt Q9Y3Z3); ssRNA binding, fluorescence anisotropy; 1 µM protein, added: FAM-labelled 32-mer ssRNA probe): ~25 µM
Cc1cnccc1-c1ccc(C2(c3ccc(Cl)cc3)CCNCC2)cc1 — IC50 (LATS1 (Homo sapiens, UniProt O95835); kinase activity, inhibitor, radiometric HotSpot; added: ATP 10 µM): 0.843 µM
CC(=O)Nc1cc(Nc2cc(NC3CC3)n3ncc(C#N)c3n2)ccc1N(C)CCN(C)C — IC50 (CSNK2A1 (Homo sapiens, UniProt P68400); target engagement, NanoBRET; HEK293): 0.0027 µM
COc1ccc(NC(=O)N[C@@H](Cc2ccc(C#N)cc2)C(=O)NCC2(c3ccc(O)cc3)CC2)cc1 — IC50 (FPR2 (Homo sapiens, UniProt P25090); calcium mobilization; FPR2-transfected HL-60; desensitization pretreatment, added: WKYMVM 5 nM): 3.7 ± 1.3 µM
COc1cc(Nc2ccnc3cc(Br)ccc23)cc(OC)c1OC — IC50 (PKN3 (Homo sapiens, UniProt Q6P5Z2); target engagement, NanoBRET; HEK293): 2.7 µM
O=C(c1ccc(O)c(C(F)(F)F)c1)N1Cc2ccccc2C1 — IC50 (HSP90AA1 (Homo sapiens, UniProt P07900); binding, fluorescence polarization; added: FITC-geldanamycin tracer): 7.9 ± 1.18 µM
CCCCNCC1=Cc2cc3c(cc2[C@@H](c2cc(OC)c(OC)c(OC)c2)[C@@H]1C(=O)OC)OCO3 — IC50 (Tubulin alpha/beta heterodimer; tubulin polymerization, inhibitor; 37 °C, added: tubulin 1.2 mg/mL): 12.1 ± 0.8 µM
N#Cc1cnc(Nc2nc3ccccc3o2)nc1-c1ccccn1 — IC50 (Grm5 (Rattus norvegicus, UniProt P31424); calcium mobilization, negative allosteric modulator; added: glutamate EC80): > 10 µM
O=C1NC(=S)NC(=O)C1=Cc1cn(C(=O)c2ccc3ccccc3c2)c2ccccc12 — IC50 (DNA polymerase eta (POLH, Homo sapiens, UniProt Q9Y253); DNA polymerase activity, inhibitor, fluorescence; added: dTTP 100 µM): 25 µM
COC(=O)[C@@H]1C(c2nc3cncnc3[nH]2)=Cc2cc3c(cc2[C@H]1c1cc(OC)c(OC)c(OC)c1)OCO3 — IC50 (Tubulin alpha/beta heterodimer; tubulin polymerization, inhibitor; 37 °C, added: tubulin 1.2 mg/mL): > 20 µM
COc1ccc(C(=O)CCc2cc([C@@H](CCc3ccc(O)cc3OC)c3ccc(O)cc3)c(O)cc2OC)cc1 — IC50 (ALOX5 (Homo sapiens, UniProt P09917); enzyme activity; cell-free): 0.51 µM
N#Cc1ccccc1N1CCN(C(=O)CCCn2c(=S)[nH]c3ccccc3c2=O)CC1 — IC50 (ESR1; reporter gene, coactivator binding inhibitor, luciferase reporter; HEC-1 cells transfected with ERα; toxicity up to 50% at 20 µM, added: estradiol 1 nM): 7.5 µM
Fc1cccc(/C=C/c2c[nH]c3ccc(F)cc23)c1 — IC50 (IDO1; enzyme activity, inhibitor): 4.9 µM
CC(=O)Nc1nc(C)c(-c2csc(Nc3ccc([N+](=O)[O-])cc3)n2)s1 — IC50 (Protein-lysine 6-oxidase (Homo sapiens, UniProt P28300); LOX activity, inhibitor; MDA-MB-231): > 10 µM
Cc1cnc(C#Cc2cccc(-c3nn(-c4nc(C(=O)O)cs4)c(CC4CC4)c3Cc3ccc(S(N)(=O)=O)c(F)c3)c2)o1 — IC50 (LDHA (Homo sapiens, UniProt P00338); enzyme activity, inhibitor): 0.01 µM
Cc1c(N)cccc1C(=O)N1C[C@H](O)C[C@H]1C(=O)NCc1ccc(-c2cnco2)cc1 — IC50 (von Hippel-Lindau disease tumor suppressor, with elongin B, C (VHL, Homo sapiens, UniProt P40337); binding, fluorescence polarization; 1% DMSO, added: FAM-HIF1α peptide tracer): 14 ± 0.7 µM
CN1CCN(Cc2ccc(NC(=O)c3cncc(C#Cc4cncc5ncccc45)c3)cc2C(F)(F)F)CC1 — IC50 (Kinesin-1 heavy chain/ Tyrosine-protein kinase receptor RET (RET/KIF5B, Homo sapiens, UniProt P07949+P33176); cell viability, inhibitor, CellTiter-Glo; Ba/F3 KIF5B-RET wild type): 0.00286 ± 0.00012 µM
O=C(NO)c1c(F)c(F)c(F)c(F)c1F — IC50 (HDAC6 (Homo sapiens, UniProt Q9UBN7); enzyme activity, inhibitor, electrophoretic mobility shift; added: FAM-RHKK(Ac)-NH2 1 µM): 7.44 µM
CC(C)CNC(=O)CSc1nc2ccc(NC(=O)CSc3ccccc3C(C)C)cc2s1 — IC50 (ESR1; reporter gene, antagonist; HEC-1 transfected ERα luciferase reporter): > 50 µM
CC(C)(C)c1nc(-c2cccc(Nc3ncnn4ccc(CN5CCC(N)CC5)c34)c2)no1 — IC50 (AAK1 (Homo sapiens, UniProt Q2M2I8)): 0.01 µM
CN1CC[C@H](c2c(O)cc(O)c3c(=O)cc(-c4ccccc4F)oc23)[C@H](O)C1 — IC50 (GSK3A (Homo sapiens, UniProt P49840); ATP at Km): > 1 µM
Cc1ccc(-c2ccc3c(c2)sc2nc(CCC(=O)O)[nH]c(=O)c23)cc1 — IC50 (FGFR1; kinase activity, inhibitor, AlphaScreen; added: biotinylated peptide substrate): 26 µM
O=C(CCCCCCCn1c(=S)[nH]c2ccccc2c1=O)N1CCN(c2cccc(Cl)c2)CC1 — IC50 (ESR1; reporter gene, antagonist; HEC-1 cells transfected with ERα; added: estradiol 1 nM): 4.2 µM
N#Cc1ccc2[nH]cc(/C=C/c3cccc(O)c3)c2c1 — IC50 (APP amyloid-beta peptide; Aβ42 oligomerisation, ELISA): > 20 µM
Cc1ccc(CCN2CCN(c3cc(N4CCCC4)nc(N4CCCC4)n3)CC2)cc1 — IC50 (Caspase-1 (CASP1, Homo sapiens, UniProt P29466); enzyme activity, inhibitor; 30 min preincubation, added: Ac-WEHD-AMC 10 µM): 0.087 ± 0.009 µM
CN1CCC[C@@H]1C(=O)N[C@@H](Cc1ccccc1)B(O)O — IC50 (Proteasome subunit beta type-9 / Proteasome subunit beta type-10 (Homo sapiens, UniProt P28065+P40306); β1i enzyme activity, inhibitor; added: Ac-PAL-AMC): 0.18 µM
Nc1ccc(F)cc1-c1nc2ccccc2[nH]c1=O — IC50 (Protein diaphanous homolog 1, FH2 domain (Diaph1, Mus musculus, UniProt O08808); actin assembly, inhibitor, pyrene-actin polymerization): > 50 µM
